# Experimental data collected from several papers.
# Values joined by “and” are separate records of one study, mostly repeats; a detail may differ.
# B1: gpB portal 23-533 (bacteriophage lambda, UniProt P03710); sequence looked up; chain GYHGGGSGFGGQLRSWNPPSESVDAALLPNFTRGNARADDLVRNNGYAANAIQLHQDHIVGSFFRLSHRPSWRYLGIGEEEARAFSREVEAAWKEFAEDDCCCIDVERKRTFTMMIREGVAMHAFNGELFVQATWDTSSSRLFRTQFRMVSPKRISNPNNTGDSRNCRAGVQINDSGAALGYYVSEDGYPGWMPQKWTWIPRELPGGRASFIHVFEPVEDGQTRGANVFYSVMEQMKMLDTLQNTQLQSAIVKAMYAATIESELDTQSAMDFILGANSQEQRERLTGWIGEIAAYYAAAPVRLGGAKVPHLMPGDSLNLQTAQDTDNGYSVFEQSLLRYIAAGLGVSYEQLSRNYAQMSYSTARASANESWAYFMGRRKFVASRQASQMFLCWLEEAIVRRVVTLPSKARFSFQEARSAWGNCDWIGSGRMAIDGLKEVQEAVMLIEAGLSTYEKECAKRGDDYQEIFAQQVRETMERRAAGLKPPAWAAAAFESGLRQSTEEEKSDSRAA
# B2: Rep68 1-490 C151S (Adeno-associated virus 2, UniProt P03132); sequence looked up; chain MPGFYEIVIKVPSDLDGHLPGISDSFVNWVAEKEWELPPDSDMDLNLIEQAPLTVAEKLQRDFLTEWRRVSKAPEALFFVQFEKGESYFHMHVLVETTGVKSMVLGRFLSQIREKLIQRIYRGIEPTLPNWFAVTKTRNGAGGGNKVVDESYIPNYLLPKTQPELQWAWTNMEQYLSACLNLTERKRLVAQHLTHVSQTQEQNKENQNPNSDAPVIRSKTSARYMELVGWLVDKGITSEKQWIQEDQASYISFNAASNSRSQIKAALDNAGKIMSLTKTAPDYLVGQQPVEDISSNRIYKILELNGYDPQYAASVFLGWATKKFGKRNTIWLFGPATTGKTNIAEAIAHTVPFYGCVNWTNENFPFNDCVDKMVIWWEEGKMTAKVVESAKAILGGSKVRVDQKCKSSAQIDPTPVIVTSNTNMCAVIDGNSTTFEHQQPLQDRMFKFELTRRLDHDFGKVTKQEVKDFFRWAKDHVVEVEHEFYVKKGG
# B3: fphE (Staphylococcus aureus, UniProt Q2FDS6); sequence looked up; chain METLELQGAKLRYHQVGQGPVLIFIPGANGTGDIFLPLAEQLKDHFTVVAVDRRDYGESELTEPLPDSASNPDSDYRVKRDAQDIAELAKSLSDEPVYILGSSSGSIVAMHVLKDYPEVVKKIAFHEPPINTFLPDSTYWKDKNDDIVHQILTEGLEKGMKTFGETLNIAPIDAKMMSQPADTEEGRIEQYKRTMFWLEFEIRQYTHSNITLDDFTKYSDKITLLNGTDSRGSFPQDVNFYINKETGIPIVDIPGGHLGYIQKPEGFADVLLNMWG
# B4: panD D95A (Mycobacterium abscessus, UniProt B1MGV7); chain MMFRTMMKSKIHRATVTHADLHYVGSVTIDPDLMEAADLLEGEQVTIVDIDNGARLETYAITGTRGSGVIGINGAAAHLVHPGDLVIIIAYGVMTAEEARAFTPRVVFVDSDNKQVELGEHSDDPAYVPENFGLVSPRGLV
# B5: lacI 1-360 N125A/D149A (Escherichia coli, UniProt P03023); chain MKPVTLYDVAEYAGVSYQTVSRVVNQASHVSAKTREKVEAAMAELNYIPNRVAQQLAGKQSLLIGVATSSLALHAPSQIVAAIKSRADQLGASVVVSMVERSGVEACKAAVHNLLAQRVSGLIIAYPLDDQDAIAVEAACTNVPALFLAVSDQTPINSIIFSHEDGTRLGVEHLVALGHQQIALLAGPLSSVSARLRLAGWHKYLTRNQIQPIAEREGDWSAMSGFQQTMQMLNEGIVPTAMLVANDQMALGAMRAITESGLRVGADISVVGYDDTEDSSCYIPPLTTIKQDFRLLGQTSVDRLLQLSQGQAVKGNQLLPVSLVKRKTTLAPNTQTASPRALADSLMQLARQVSRLESGQ
# B6: arp4 42-355 (Streptococcus pyogenes, UniProt P13050); chain AEIKKPQADSAWNWPKEYNALLKENEELKVEREKYLSYADDKEKDPQYRALMGENQDLRKREGQYQDKIEELEKERKEKQERQEQLERQYQIEADKHYQEQQKKHQQEQQQLEAEKQKLAKDKQISDASRQGLSRDLEASRAAKKELEAEHQKLKEEKQISDASRQGLSRDLEASREAKKKVEADLAALTAEHQKLKEDKQISDASRQGLSRDLEASREAKKKVEADLAEANSKLQALEKLNKELEEGKKLSEKEKAELQARLEAEAKALKEQLAKQAEELAKLKGNQTPNAKVAPQANRSRSAMTQQKRTLPS
# B7: pomB 1-315 (Vibrio alginolyticus, UniProt O06874); chain MDDEDNKCDCPPPGLPLWMGTFADLMSLLMCFFVLLLSFSEMDVLKFKQIAGSMKFAFGVQNQLEVKDIPKGTSIIAQEFRPGRPEPTPIDVIMQQTMDITQQTLEFHEGESDRAGGTKRDEGKLTGGQSPATSTQNNESAEADMQQQQSKEMSQEMETLMESIKKALEREIEQGAIEVENLGQQIVIRMREKGAFPEGSAFLQPKFRPLVRQIAELVKDVPGIVRVSGHTDNRPLDSELYRSNWDLSSQRAVSVAQEMEKVRGFSHQRLRVRGMADTEPLLPNDSDDNRALNRRVEISIMQGEPLYSEEVPVIQ
# B8: ilvA regulatory domain 336-422 (Staphylococcus aureus, UniProt Q2FF63); sequence looked up; chain EMKHYFILNFPQRPGALREFVNDVLGPQDDITKFEYLKKSSQNTGTVIIGIQLKDHDDLIQLKQRVNHFDPSNIYINENKMLYSLLI
# B9: mpr (Mycobacterium smegmatis, UniProt Q50442); chain MTTPQPYPGMPSQPAPQGVPYPPQQPAKKKRKWPAIVGGVIALMIVGSIFNDDKKDTTPAENTATVAQAPAAAPTKEVPETTATINTPVRDGKFEFVVRSVEPGLSEVGDNPFLNQKAQGQFVIVTLSVQNIGDRPQGFSPSNQKLFDTEGRSFETDTSAQIALDNNDIAVWDNINPGNTVDVSLVYDMPVDAVPASIELHDSMFSGGVTVNLTP
# B10: Rep68 C151S (adeno-associated virus 2, UniProt P03132); chain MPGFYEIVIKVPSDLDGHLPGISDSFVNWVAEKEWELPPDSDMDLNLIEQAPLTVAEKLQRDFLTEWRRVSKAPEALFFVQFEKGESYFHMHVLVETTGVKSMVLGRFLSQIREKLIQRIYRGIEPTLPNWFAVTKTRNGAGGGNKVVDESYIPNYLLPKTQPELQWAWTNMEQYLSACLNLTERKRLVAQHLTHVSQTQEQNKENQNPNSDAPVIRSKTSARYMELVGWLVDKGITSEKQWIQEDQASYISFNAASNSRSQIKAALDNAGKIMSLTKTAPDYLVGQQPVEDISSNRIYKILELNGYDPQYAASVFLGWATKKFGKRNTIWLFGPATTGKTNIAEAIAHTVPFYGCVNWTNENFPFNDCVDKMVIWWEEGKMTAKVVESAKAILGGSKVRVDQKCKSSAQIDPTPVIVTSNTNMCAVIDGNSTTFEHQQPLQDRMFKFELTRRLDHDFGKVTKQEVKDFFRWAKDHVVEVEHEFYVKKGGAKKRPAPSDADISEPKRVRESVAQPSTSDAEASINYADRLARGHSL
# B11: ariA (Escherichia coli, UniProt A0ABF7PQ30); chain AIRTISKIELSKIHNRYNLTVDFFNDLNVIHGKNGAGKSTLIHVIANIVNGDFIRFAFLIFEEIKATYSDGLKIVIRRDKIDEQSFISVTLSNGKYIKFAVGEAMATVREIESERHLRERDVKSMLAMDIDKFVKENELQKVRASYFPAFRTMLEAWSSSSDVGYERRVIRSSFYNRKASAFARELFGQFLPSINYPSPMEIEDRLREEIRRAQLGIAAYESRTFSESFVKVFSALFDNSSVEGEITGELLKEIEGLAIAQDSSIKNGYYAEYSKVYEEIRSLINRNLKGKVENSVSGALVVYRDALRDRQDYQEKAFSEIDNYMSSVNSFLEDKEMAYDFDLRRKYPKVGLKFPDGSWSPIRVLSSGERQLLTMLYAASKMGDDAIVLIDEPEISLHIDWQEDLLKRMLSQLSGRQIIVCTHSPSIATGYEDFMINISPEFISSRDNDNHKDSEEMEEDESL
# UniProt P05030, sequence (whole entry, looked up): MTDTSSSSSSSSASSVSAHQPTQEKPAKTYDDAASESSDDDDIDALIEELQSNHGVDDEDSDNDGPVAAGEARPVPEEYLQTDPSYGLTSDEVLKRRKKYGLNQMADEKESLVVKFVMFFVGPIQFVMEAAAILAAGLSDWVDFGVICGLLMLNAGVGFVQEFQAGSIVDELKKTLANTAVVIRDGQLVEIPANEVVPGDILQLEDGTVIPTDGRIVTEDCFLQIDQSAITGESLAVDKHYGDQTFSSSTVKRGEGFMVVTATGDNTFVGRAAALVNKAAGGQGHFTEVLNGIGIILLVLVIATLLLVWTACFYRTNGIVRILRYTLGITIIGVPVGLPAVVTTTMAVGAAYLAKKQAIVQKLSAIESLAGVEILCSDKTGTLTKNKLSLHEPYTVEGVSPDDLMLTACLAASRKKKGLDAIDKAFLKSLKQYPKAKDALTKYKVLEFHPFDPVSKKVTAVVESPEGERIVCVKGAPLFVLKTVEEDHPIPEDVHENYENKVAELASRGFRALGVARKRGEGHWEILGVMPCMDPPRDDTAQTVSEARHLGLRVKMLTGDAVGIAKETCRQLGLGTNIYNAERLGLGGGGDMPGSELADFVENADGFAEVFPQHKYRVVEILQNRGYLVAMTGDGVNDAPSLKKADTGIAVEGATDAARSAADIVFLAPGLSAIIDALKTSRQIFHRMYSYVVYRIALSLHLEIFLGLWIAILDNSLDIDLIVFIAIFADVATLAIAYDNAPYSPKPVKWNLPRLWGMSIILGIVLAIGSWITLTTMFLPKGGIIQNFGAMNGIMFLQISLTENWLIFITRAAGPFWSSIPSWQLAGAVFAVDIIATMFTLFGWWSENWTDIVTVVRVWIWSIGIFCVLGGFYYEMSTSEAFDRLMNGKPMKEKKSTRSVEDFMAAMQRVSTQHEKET
Molecule,target or system,assay,test system,setting,scale,endpoint,result
B1 (gpB portal 23-533),itself,cryo-EM,,,,subunits per oligomer,12
B2 (Rep68 1-490 C151S),itself,cryo-EM,,,,subunits per oligomer,7
B3 (fphE),itself,SEC,,,,subunits per oligomer,2
B4 (panD D95A),itself,native gel,,,,subunits per oligomer,4
B5 (lacI 1-360 N125A/D149A),itself,SEC,,,,subunits per oligomer,4
B6 (arp4 42-355),itself,cryo-EM,,,,subunits per oligomer,2
B7 (pomB 1-315),itself,cryo-EM structure,,,,subunits per oligomer,2
B8 (ilvA regulatory domain 336-422),itself,SEC,,,,subunits per oligomer,4
insulin human,,item: SLC1A2 mRNA,"mouse, uninfected, brain","intraperitoneal, dose not given",baseline: PBS,fold change,1.26
B9 (mpr),itself,cross-linking,,,,subunits per oligomer,4
B10 (Rep68 C151S),itself,cryo-EM,,,,subunits per oligomer,5 and 6
"PMA1 (Saccharomyces cerevisiae, UniProt P05030)",itself,SEC,,,,subunits per oligomer,6
B11 (ariA),itself,SEC-MALS,,,,subunits per oligomer,6
"large T antigen (SV40, UniProt P03070)",itself,native gel or EMSA,,,,subunits per oligomer,12 and 6

# Excerpt of the above:
Molecule,target or system,assay,test system,setting,scale,endpoint,result
B4 (panD D95A),itself,native gel,,,,subunits per oligomer,4
B5 (lacI 1-360 N125A/D149A),itself,SEC,,,,subunits per oligomer,4
